# Measured values pooled from the literature.
# A part holds a random share of what one study measured.
# Sequence of UniProt Q99558 (whole entry, looked up): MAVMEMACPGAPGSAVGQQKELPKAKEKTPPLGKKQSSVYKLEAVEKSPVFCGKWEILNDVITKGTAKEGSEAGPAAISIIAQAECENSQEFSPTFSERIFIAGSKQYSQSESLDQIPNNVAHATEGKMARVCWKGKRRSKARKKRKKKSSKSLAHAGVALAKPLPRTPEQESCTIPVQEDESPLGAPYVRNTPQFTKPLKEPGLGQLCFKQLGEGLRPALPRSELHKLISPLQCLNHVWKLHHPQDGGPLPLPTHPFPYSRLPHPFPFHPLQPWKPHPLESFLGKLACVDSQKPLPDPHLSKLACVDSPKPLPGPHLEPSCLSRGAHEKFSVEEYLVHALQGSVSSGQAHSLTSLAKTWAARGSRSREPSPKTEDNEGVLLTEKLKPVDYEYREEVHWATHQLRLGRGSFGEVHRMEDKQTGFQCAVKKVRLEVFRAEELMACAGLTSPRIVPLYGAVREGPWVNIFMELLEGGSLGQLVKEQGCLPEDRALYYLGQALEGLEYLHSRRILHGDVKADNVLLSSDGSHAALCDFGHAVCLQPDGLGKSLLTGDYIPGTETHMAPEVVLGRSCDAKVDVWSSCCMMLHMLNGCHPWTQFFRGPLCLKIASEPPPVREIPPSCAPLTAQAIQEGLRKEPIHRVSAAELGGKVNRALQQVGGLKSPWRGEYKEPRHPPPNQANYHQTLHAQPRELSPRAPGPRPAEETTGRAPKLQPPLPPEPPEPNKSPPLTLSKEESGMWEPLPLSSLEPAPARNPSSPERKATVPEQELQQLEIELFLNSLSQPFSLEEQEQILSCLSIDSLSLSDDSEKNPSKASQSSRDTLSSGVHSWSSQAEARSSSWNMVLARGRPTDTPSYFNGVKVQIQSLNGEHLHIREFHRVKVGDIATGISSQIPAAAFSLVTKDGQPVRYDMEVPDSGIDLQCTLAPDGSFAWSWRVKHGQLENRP
# Sequence of UniProt Q9UM73 (whole entry, unmodified, looked up): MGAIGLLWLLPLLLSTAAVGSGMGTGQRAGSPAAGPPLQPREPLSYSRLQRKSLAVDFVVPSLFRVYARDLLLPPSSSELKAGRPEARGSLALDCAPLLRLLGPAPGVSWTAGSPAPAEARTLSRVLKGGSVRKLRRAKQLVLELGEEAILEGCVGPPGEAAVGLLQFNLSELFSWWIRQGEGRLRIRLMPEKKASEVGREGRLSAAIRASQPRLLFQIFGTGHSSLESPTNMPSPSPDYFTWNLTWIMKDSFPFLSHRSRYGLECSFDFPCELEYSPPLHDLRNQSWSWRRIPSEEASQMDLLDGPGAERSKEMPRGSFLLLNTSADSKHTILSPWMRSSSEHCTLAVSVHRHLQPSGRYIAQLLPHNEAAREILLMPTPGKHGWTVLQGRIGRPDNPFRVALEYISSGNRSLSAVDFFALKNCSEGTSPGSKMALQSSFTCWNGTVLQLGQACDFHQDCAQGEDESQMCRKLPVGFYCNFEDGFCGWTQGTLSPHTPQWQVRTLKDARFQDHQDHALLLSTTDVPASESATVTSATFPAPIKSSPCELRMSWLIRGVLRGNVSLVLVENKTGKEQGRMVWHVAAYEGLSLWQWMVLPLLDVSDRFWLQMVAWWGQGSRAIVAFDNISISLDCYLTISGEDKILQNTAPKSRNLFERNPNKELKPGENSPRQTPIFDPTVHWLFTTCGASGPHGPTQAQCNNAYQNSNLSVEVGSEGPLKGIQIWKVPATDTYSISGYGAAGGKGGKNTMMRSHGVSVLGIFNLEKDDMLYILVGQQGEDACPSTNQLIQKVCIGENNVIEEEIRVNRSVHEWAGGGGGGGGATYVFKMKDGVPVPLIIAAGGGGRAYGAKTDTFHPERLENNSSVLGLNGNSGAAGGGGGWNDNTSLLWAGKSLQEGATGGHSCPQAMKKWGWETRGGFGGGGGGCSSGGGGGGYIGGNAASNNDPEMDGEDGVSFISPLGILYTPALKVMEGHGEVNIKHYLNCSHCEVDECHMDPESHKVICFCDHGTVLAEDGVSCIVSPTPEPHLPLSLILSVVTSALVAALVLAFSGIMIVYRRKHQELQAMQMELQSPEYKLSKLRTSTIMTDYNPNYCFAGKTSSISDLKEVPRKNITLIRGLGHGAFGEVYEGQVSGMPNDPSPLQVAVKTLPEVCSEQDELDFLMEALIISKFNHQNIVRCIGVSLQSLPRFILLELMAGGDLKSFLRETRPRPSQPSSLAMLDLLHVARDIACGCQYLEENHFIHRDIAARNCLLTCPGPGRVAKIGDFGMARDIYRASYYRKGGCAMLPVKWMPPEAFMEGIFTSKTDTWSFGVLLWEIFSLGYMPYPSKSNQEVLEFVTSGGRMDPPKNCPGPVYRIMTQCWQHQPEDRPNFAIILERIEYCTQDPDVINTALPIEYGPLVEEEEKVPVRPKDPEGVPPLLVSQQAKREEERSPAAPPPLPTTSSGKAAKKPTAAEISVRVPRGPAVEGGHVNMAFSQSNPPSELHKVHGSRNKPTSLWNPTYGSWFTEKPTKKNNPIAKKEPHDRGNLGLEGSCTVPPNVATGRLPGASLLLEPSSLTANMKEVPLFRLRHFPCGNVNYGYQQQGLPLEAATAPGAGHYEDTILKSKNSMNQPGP
# Sequence of UniProt Q02763 (whole entry, looked up): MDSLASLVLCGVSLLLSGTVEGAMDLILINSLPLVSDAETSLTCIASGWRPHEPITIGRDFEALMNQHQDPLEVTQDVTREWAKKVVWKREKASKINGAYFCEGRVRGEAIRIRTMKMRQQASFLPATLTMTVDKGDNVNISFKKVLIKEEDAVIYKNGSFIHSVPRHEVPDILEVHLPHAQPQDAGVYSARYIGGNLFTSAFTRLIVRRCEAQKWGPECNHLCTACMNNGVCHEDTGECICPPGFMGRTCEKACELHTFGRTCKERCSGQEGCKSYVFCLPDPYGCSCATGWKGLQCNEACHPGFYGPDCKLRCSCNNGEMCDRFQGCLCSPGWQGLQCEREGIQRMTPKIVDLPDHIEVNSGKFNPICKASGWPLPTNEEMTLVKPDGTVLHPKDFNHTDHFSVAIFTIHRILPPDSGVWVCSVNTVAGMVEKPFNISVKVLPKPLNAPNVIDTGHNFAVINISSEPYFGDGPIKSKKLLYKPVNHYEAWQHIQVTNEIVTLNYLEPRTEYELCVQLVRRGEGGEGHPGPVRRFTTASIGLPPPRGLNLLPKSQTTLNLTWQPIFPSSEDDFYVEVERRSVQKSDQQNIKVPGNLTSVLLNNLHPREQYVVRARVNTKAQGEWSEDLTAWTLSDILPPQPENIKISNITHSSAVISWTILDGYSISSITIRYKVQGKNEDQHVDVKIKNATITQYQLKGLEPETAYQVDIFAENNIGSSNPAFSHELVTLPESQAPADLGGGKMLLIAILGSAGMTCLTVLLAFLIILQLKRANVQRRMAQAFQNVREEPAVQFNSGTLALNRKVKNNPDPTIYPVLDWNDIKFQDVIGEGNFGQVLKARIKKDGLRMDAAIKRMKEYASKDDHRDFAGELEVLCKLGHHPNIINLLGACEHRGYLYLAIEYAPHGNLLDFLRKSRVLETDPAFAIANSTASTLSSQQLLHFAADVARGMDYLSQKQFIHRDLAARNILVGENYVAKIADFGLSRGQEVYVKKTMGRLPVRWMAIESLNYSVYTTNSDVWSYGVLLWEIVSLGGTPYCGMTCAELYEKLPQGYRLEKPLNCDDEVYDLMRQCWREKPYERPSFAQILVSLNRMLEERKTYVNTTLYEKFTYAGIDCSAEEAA
# Sequence of UniProt Q9HC98 (whole entry, looked up): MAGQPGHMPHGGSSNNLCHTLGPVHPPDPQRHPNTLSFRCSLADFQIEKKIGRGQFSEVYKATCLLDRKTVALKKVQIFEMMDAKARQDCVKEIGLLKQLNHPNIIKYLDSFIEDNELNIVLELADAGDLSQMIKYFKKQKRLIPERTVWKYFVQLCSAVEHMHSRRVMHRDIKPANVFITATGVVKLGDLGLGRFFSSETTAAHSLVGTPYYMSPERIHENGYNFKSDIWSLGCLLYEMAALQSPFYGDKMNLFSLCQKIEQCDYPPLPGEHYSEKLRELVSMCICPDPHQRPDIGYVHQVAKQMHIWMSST

# Sample 1
# Target: Sal-like protein 4, full length isoform A (SALL4, Homo sapiens, UniProt Q9UJQ4, residues 1-1053)
# Sequence of UniProt Q9UJQ4 (whole entry, looked up): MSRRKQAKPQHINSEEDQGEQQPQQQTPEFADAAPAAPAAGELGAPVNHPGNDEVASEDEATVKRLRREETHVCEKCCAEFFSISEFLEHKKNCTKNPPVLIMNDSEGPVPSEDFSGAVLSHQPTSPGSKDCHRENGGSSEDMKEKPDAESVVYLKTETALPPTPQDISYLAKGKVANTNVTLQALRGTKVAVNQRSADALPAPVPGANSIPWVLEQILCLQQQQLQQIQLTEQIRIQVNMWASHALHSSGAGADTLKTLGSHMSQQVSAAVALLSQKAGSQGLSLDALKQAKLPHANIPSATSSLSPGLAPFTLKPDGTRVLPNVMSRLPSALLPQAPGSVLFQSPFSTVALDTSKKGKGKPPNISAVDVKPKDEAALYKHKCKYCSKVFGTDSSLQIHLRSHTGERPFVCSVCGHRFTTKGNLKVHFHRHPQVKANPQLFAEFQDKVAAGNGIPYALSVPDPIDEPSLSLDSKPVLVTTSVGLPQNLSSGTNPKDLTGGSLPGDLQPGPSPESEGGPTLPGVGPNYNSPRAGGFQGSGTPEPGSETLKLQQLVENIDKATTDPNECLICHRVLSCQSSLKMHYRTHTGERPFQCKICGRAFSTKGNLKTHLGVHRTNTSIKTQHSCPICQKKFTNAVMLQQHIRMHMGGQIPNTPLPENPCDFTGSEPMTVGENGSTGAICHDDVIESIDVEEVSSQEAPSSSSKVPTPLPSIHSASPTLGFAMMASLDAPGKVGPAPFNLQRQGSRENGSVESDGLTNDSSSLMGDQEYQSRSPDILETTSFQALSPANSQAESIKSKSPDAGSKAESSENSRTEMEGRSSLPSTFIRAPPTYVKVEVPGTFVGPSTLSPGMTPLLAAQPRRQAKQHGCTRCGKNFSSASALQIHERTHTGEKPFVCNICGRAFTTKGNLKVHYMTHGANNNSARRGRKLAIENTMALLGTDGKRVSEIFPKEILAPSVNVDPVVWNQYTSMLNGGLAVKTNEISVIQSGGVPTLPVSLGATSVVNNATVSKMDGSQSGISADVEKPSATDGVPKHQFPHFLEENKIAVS
# Technique: universal PBM
# Form: double-stranded DNA, one strand shown
# Sample: in vitro
# Tested at: 600 nM
# Notes: 8-mer, flanks averaged, mean of replicates
# Reading: higher = stronger binding
Strand,E-score
GCCGAAAC,-0.205
GGTCCTTA,-0.1
CTTTAGGA,0.0756
GCTCCGAC,-0.22
CGCTACCG,-0.166
ATGGGATG,-0.0943
CGGGACCC,-0.364
ATCTGCAC,-0.0181

# Sample 2
# Target: Fragile X messenger ribonucleoprotein 1, C-terminal low-complexity region (Fmr1, Mus musculus, UniProt P35922)
# Technique: RNA Bind-n-Seq
# Form: RNA
# Sample: in vitro
# Tested at: 200 nM
# Notes: whole 134-nt RNA, ends assumed
# Together with: 150 mM KCl
# Relative to: input library
# Reading: higher = stronger binding
# Constant ends, left off below: GGGAGUUCUACAGUCCGACGAUC … UGGAAUUCUCGGGUGUCAAGG
Strand,log2 enrichment
AAGUCCUGUGCUACACAUCGUAUGUACCGAAUCGGAAAAGGGGAAAAGGGAAAAGGAAAGUAUUAUGUUACGCCGUUCGGAUCUGCACUU,-0.505
CAAGUCCUGUGCUACACAUCGUAUGUACCGAAUCGGGUUUGGGAAAAAGGGUGGGAAAGUAUUAUGUUACGCCGUUCGGAUCUGCACUUC,1.28
UGCAGAAGCAUCUUCAGUUGGAGAGCCAUUGCCUCUUGCUGUGAAAUAUUUGGGAAUCUUCAGAAACCAUGAAGAAUAACCUGCUAAAGG,-1.47
ACCAUGCAGGUGGGCAUCUUUGGGAAGUGGGGCAAGGGGGGGAUAGGGAGGGGGGUACCACUUUGGGAACAGGUGGUCCCAGGUCGUUUC,0.854
UCCUGUGCUACACAUCGUAUGUACCGAAUCAAAUUUAAACCCCCCCAAAUUUUUUUAAAAAAGUAUUAUGUUACGCCGUUCGGAUCUGCA,0.543
ACCAUGCAGGUGGGCAUCUUUGGGAAGUGGGGCAAGGGGGGGAUAGGGAGGGGGGUAACACUUUGGGAACAGGUGGUCCCAGGACGUUUC,0.699
CACAGACAACACGCACCCACACAGACACAGAGGGAAGAAAUUGGGAUGGGGACAGGGUGCACAGCAGGGCGGGGUAGGACCCCAGCCCCU,0.525
CCUGUGCUACACAUCGUAUGUACCGAAUCAAAUUUUUUUAAACCCCCCCAAACCCCCAAAAAAGUAUUAUGUUACGCCGUUCGGAUCUGC,-0.213

# Sample 3
# Structure (SMILES): Cc1cncc2cccc(S(=O)(=O)N3CCCN(C(=O)CN)C[C@@H]3C)c12
# Effect on: enzyme activity
# Mode: inhibitor
# Tested at: 0.5 µM
# Relative to: control
target,remaining activity
"MAP3K5 (Homo sapiens, UniProt Q99683)",106%
"EPHA3 (Homo sapiens, UniProt P29320)",98.7%
"FGFR1 (Homo sapiens, UniProt P11362)",85.7%
"MAPKAPK2 (Homo sapiens, UniProt P49137)",103%
"ULK2 (Homo sapiens, UniProt Q8IYT8)",98.8%
"MAP3K14 (Homo sapiens, UniProt Q99558)",109%
"CSNK1G2 (Homo sapiens, UniProt P78368)",95.1%
"JAK3 (Homo sapiens, UniProt P52333)",93.1%
"TEK (Homo sapiens, UniProt Q02763)",98.6%
"FGFR3 (Homo sapiens, UniProt P22607)",97.7%
"MERTK (Homo sapiens, UniProt Q12866)",95.4%
"NEK6 (Homo sapiens, UniProt Q9HC98)",93.3%

# Sample 4
# SMILES: COc1cc(-c2cn(C3CCc4ccccc4N(CC(F)(F)F)C3=O)nn2)ccc1-n1ccc(C)n1 (stereo not drawn)
# Effect on: cell-free assay
# Technique: competition with immobilised ligand
# Tested at: 1 µM
target,remaining binding [%]
"ALK (Homo sapiens, UniProt Q9UM73, L1196M)",91
"COQ8A (Homo sapiens, UniProt Q8NI60)",100
"SLK (Homo sapiens, UniProt Q9H2G2)",100
"PIK3C2G (Homo sapiens, UniProt O75747)",65
"MAPK1 (Homo sapiens, UniProt P28482)",100

# Repeated from above (sample 2):
Strand,log2 enrichment
ACCAUGCAGGUGGGCAUCUUUGGGAAGUGGGGCAAGGGGGGGAUAGGGAGGGGGGUAACACUUUGGGAACAGGUGGUCCCAGGACGUUUC,0.699
CACAGACAACACGCACCCACACAGACACAGAGGGAAGAAAUUGGGAUGGGGACAGGGUGCACAGCAGGGCGGGGUAGGACCCCAGCCCCU,0.525
CCUGUGCUACACAUCGUAUGUACCGAAUCAAAUUUUUUUAAACCCCCCCAAACCCCCAAAAAAGUAUUAUGUUACGCCGUUCGGAUCUGC,-0.213
